# Earlier results, collected from citations in different studies.
# Protocols differ between the studies behind these lines. Several values in a cell are separate wells, animals, samples, runs or records. ± marks the error that the study gave.
Compound,target or system,assay,system,setting,measurement,result
COCCCn1ccn2cc(C(=O)NCc3ccc(F)cc3F)c(=O)c(O)c2c1=O,human immunodeficiency virus 1,single-round vector infection,wild-type integrase,,EC50,2 ± 0.2 nM
C=C[C@@H]1C[C@]1(NC(=O)[C@@H]1C[C@@H](Oc2ncc(OC)c3cc(Cl)ccc23)CN1C(=O)[C@@H](NC(=O)OC(C)(C)C)C(C)(C)C)C(=O)NS(=O)(=O)C1CC1,hepatitis C virus,replicon replication,genotype 1b,,EC50,10 nM
Cc1cc(O)c(=O)c(O)cc1C(=O)c1ccc(-c2ccccc2)cc1,herpes simplex virus 2,viral replication,,,EC50,80 nM
Cc1nc(NCC(F)(F)F)nc(N[C@@H]2C[C@H](CO)[C@@H](O)[C@H]2O)c1-c1nc2ccccc2s1,hepatitis C virus,"HCV replication, inhibitor",,,EC50,30 nM
CC1(C)N=C(N)N=C(N)N1c1ccc(Cl)c(Cl)c1,respiratory syncytial virus,viral replication,,,EC50,~8 nM
CCCC(=O)Oc1cc(C(F)(F)F)nc2c(C(F)(F)F)cccc12,Sclerotinia sclerotiorum,fungal growth,,,EC50,0.41 µg/mL
O=C(NCc1ccc(F)cc1F)c1cn2c(c(O)c1=O)C(=O)N(CCCCO)CC2,human immunodeficiency virus 1,single-round vector infection,wild-type integrase,,EC50,75.7 ± 7.4 nM
O=c1[nH]c(=O)n([C@H]2C[C@H](OC(c3ccccc3)(c3ccccc3)c3ccccc3)[C@@H](COC(c3ccccc3)(c3ccccc3)c3ccccc3)O2)cc1F,dengue virus,viral replication,,,EC50,1.2 µg/mL
O=[N+]([O-])c1ccc(-c2nc3cc4cccnc4c(Cl)c3[nH]2)cc1,bovine viral diarrhea virus,viral replication,,,EC50,1200 nM
COCCCN1CCn2cc(C(=O)NCc3ccc(F)cc3F)c(=O)c(O)c2C1=O,human immunodeficiency virus 1,single-round vector infection,wild-type integrase,,EC50,4 ± 0.7 nM
CCCCCCCCCCCCCCCCSSCCOP(=O)(O)CO[C@H](C)Cn1cnc2c(N)ncnc21,HIV-1,viral replication,,,EC50,0.5 nM
O=C(NCc1ccc(F)cc1F)c1cn2ccn(CCCCCCO)c(=O)c2c(O)c1=O,human immunodeficiency virus 1,single-round vector infection,wild-type integrase,,EC50,4.8 ± 0.9 nM
O=C(OCC[18F])C1C2CCC(CC1c1ccc(/C=C\I)cc1)N2 (stereo not shown),SERT,HRRT PET,"awake rhesus monkey, cerebellum",,time to peak uptake,35 min
O=C1C=C(c2ccc(C(F)(F)F)cc2)S(=O)(=O)c2ccc(F)cc21,Leishmania panamensis,,MHOM/CO/87/UA140-EGFP,intracellular amastigotes,EC50,3000 nM
COc1cc(/C=C2\CCC/C(=C\c3ccc(O)c(OC)c3)C2=O)ccc1O,dengue virus,plaque,,,EC50,2340 ± 210 nM
O=C(NCc1ccc(F)cc1F)c1cn2ccn(CCCCO)c(=O)c2c(O)c1=O,human immunodeficiency virus 1,single-round vector infection,wild-type integrase,,EC50,16.6 ± 2 nM
Cc1cc(N2CC[C@@](C#N)(C3(C)CC3)C2=O)cc(C(=O)NCc2cc(F)cc(-c3cnn(C)c3)c2)n1,Toxoplasma gondii,,PRS T477A mutant,,EC50,186 nM
C=C[C@@H]1C[C@]1(NC(=O)[C@@H]1C[C@@H](Oc2ncc(OC)c3ccccc23)CN1C(=O)[C@@H](NC(=O)OC(C)(C)C)C(C)(C)C)C(=O)NS(=O)(=O)C1CC1,hepatitis C virus,replicon replication,genotype 1b,,EC50,25 nM and 19 nM
O=C(NCc1ccc(F)cc1F)c1cn2c(c(O)c1=O)C(=O)N(CCCCCCO)CC2,human immunodeficiency virus 1,single-round vector infection,wild-type integrase,,EC50,31.7 ± 3.8 nM
Nc1c(C(=O)NCc2ccc(F)cc2F)c(=O)n(O)c2ncccc12,HIV-1,"viral replication, lentiviral vector",wild-type integrase,,EC50,~1 nM and 1.1 nM
CC1(C)O[C@H](COP2(=O)OCc3ccccc3O2)[C@H](C(=O)NO)O1 (stereo partly shown),Trypanosoma brucei,parasite growth,,,EC50,inactive
CC(C)n1ccn2cc(C(=O)NCc3ccc(F)cc3F)c(=O)c(O)c2c1=O,human immunodeficiency virus 1,single-round vector infection,wild-type integrase,,EC50,3.8 ± 0.6 nM
C=CC1CC1(NC(=O)C1CC(Oc2nccc3cc(OC)ccc23)CN1C(=O)C(NC(=O)OC(C)(C)C)C(C)C)C(=O)NS(=O)(=O)C1CC1 (stereo not shown),hepatitis C virus,replicon replication,genotype 1b,,EC50,17 nM
COC(=O)N[C@H](C(=O)N1CCC[C@H]1c1ncc(-c2ccc(-c3ccc(-c4cnc([C@@H]5CC6(CN5C(=O)[C@@H](NC(=O)OC)C(C)C)OCCO6)[nH]4)cc3)cc2)[nH]1)C(C)C,hepatitis C virus,replicon,genotype 1a,,EC50,0.01 nM
C=C[C@@H]1C[C@]1(NC(=O)[C@@H]1C[C@@H](Oc2cc(-c3ccccc3)nc3cc(OC)ccc23)CN1C(=O)[C@@H](NC(=O)OC(C)(C)C)C(C)(C)C)C(=O)NS(=O)(=O)C1CC1,hepatitis C virus,replicon replication,genotype 1b,,EC50,4 nM
CSCC[C@H](N)C(=O)N1CCC[C@H]1C(=O)Nc1ccc([N+](=O)[O-])cc1,dengue virus 2,viral replication,,,EC50,38700 ± 5400 nM
O=C(NCc1ccc(F)cc1F)c1cn2ccn(CCCCCO)c(=O)c2c(O)c1=O,human immunodeficiency virus 1,single-round vector infection,wild-type integrase,,EC50,10.8 ± 1.7 nM
C=CC1CC1(NC(=O)C1CC(Oc2nccc3cc(OC)ccc23)CN1C(=O)C(NC(=O)OC(C)(C)C)C(C)(C)C)C(=O)O (stereo not shown),hepatitis C virus,replicon replication,genotype 1b,,EC50,2000 nM

# A few entries again:
Compound,target or system,assay,system,setting,measurement,result
C=C[C@@H]1C[C@]1(NC(=O)[C@@H]1C[C@@H](Oc2ncc(OC)c3cc(Cl)ccc23)CN1C(=O)[C@@H](NC(=O)OC(C)(C)C)C(C)(C)C)C(=O)NS(=O)(=O)C1CC1,hepatitis C virus,replicon replication,genotype 1b,,EC50,10 nM
